Published values of several laboratories.
A part holds a random share of what one study measured.

Study 1
Target: RING finger protein unkempt homolog, zinc fingers 1-6, SBP tag (UNK, Homo sapiens, UniProt Q9C0B0, residues 30-357)
Sequence of UniProt Q9C0B0 (30-357, looked up): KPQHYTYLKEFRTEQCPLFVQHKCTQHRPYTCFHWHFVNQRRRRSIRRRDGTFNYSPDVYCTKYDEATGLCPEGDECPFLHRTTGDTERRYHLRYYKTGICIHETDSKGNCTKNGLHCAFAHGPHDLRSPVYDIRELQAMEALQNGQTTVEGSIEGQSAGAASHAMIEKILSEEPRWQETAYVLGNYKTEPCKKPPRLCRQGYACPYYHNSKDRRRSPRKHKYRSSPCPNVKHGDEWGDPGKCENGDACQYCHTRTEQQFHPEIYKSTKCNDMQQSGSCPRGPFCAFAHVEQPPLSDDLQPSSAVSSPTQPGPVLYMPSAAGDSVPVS
Method: RNA Bind-n-Seq
Form: RNA
Medium: in vitro
Concentration: 100 nM
Setting: RNA with constant flanks, vertebrate orthologous sites, ends assumed
Relative to: input RNA pool
Reading: higher = stronger binding
Sequence	bound/input enrichment
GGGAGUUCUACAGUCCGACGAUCGCACAUGCCGCUAUCACCAAAAGCAAAGUGCCAUUUUUCAAAUUUCAUUCAGAGCCGUUCUAGUGUUUCCUAUUCCCUGCCCUUCCCAUUACUUUCAGUGAUGAAAGUUCUCCUCUGACACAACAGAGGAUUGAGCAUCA	1.61 ratio
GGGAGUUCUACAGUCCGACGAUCCCUUCUGUAGAGAACAAUUUUCACUAAAGCCAUUGACAAAUUCCCCCCACCAGACUUUUCUUUGGAGCUCUUUCAUUUCGUACAAUCUUGCUGUGUUGGUCAUUGUUAGCCCUGAAUCCACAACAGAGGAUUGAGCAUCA	0.914 ratio
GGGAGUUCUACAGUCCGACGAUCAUGAUUUUUUUUCUUAUUAUUAUUAUGUUUUUUUCCUUGCUGAAGUAUGCUAUACCAAAACAGUGCGUGGUUACCAUGAAUUAAUCUGUUAUGGAUGUUGCUCUAGUGACAUGCGGUUCUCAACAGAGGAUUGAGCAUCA	0.859 ratio
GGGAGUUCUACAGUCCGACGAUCCAGCUGAUUCACUCAUUGGGAGAGCUGCACAUAUAGCUGUUCUGGAUUCGGAAAUAUUUUUAGAGAAAUUCUUUCUGGUUGCUGCCCUCAAAUAUUUCCAUUAGGAUUAAAUGCAUUGGUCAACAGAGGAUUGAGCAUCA	1.36 ratio
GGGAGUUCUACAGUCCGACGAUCAGGGCGGCCCCGGGGCCUUGGGCACUGCUGGCCCCCGAGGCUGUUGUUGGCAACCUGACAAAAUAGAUAGGCUUGUGGUUGUUGUUGUUUUGUUUUUUUUUUUUAAUUUAAAGAUAUUAACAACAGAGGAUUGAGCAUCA	0.973 ratio
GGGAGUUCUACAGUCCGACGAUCGGACCAUACAUAUACAAUGUGUAUCAAAUGCUGGUUGUAAAAUUAAACCAUCAUCUAGAAUAGAGUUAAUUUGUUAUAAUCAAGUUACAAAUAGGUUUUCUUAAACCAGAGAUGCACCGCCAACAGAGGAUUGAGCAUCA	0.502 ratio
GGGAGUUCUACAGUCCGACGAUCUCACGAUCUCUACUUAAGUAGGUUUUACAUACCGAGUUAAGCCUUCAUUUUACAUAUUUACAGCUUUUCUCCAGAGGAGGUAAAAGAAUCUCAUGCUUAAAGUUACAUGUGGUCUUUGGCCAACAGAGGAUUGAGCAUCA	0.442 ratio
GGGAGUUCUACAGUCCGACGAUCGCACUGCUUGUUCCAGUUUCACAACACUGAAUGCAAAGUAGCAAAUUUCAUAGUCACAGUAAGGUAGCUUUAGGGUAAAGAGUUUGAAAAAAUGUAUCAUAUGUAUAAUUGUUUUCCUUUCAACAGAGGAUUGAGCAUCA	1.21 ratio

Study 2
Target: Hepatocyte nuclear factor 3-alpha (Foxa1, Mus musculus, UniProt P35582, residues 1-468, full length assumed)
Method: EMSA with sequencing
Form: double-stranded DNA, one strand shown
Medium: in vitro
Concentration: 10 and 20 nM
Setting: whole designed probe, mean of two concentrations, ends assumed
Relative to: negative control set to 0
Reading: higher = stronger binding
Target sequence (chain): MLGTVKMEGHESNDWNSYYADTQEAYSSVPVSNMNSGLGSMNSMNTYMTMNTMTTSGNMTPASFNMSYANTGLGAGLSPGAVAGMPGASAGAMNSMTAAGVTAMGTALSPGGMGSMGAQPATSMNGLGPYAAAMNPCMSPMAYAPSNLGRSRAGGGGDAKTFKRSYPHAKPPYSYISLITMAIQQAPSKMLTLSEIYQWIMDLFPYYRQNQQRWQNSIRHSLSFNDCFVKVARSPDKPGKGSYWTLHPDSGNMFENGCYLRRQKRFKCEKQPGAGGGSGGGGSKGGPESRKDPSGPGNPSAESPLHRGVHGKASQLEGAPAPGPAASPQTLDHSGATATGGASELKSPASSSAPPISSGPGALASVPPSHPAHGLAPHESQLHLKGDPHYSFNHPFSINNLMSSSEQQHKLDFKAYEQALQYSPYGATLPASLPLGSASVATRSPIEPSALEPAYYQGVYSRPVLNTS
Sequence	normalised bound fraction
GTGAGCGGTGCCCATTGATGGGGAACCTATGTGCTGCCCCCAGAGGTGGAGTGTACAGAGGCAGGCAGGCTTCCTTGAGCTGCAGTGAGTTCCACCCAGTTTGAGCTTCCTGGCTGCTTTGTTTACCTACTCAAGCCTCAGCAAACGCGACGCCCCTCCCTCAGCCTGGCTGCTGTCTTGCAGTTAGATCTCAGACTGCTGTGCCAGCAGTGAGCAAGGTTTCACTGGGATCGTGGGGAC	0.421 ratio
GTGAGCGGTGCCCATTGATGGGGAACATGTGGGAACTAATTGAGGACCAAGATTACAATGCGTACAAATCATAAATCAATTAGTTCATATTGATTTACAAACAAGGAAGAAAAAGTATTAGATTACATTGATACTGTCCATGTAAACTTTTTTCAATTCAAAAGAAACACATAGTTCTGTCATAAAGTAGATTTTCTATCCCTTTTATTTTCTGAGCTTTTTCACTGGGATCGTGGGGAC	0.264 ratio
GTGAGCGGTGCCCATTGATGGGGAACATCTTCCCCCTCTTCCTTGCCCCACCAGCTCACCTTCCCGGGTTATTTAGTAGAAGGCAAATAAATAAAGCCGGCATTCGTTAACCCTCTTCTGGCGCAAACTGCTGTTTGCTCTGGATGAATCATGGTCCTTTGGCGACGCCAGGCTCCGGGAGAGCAAAGCACCGTGTCAGGGCCATGATCCGGGGTGGCCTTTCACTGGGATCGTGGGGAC	0.3 ratio
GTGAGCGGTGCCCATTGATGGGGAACTCAGGTTGCAGTGAGCTCTGATCGTGCCACTGCACTCCAGCCTGTGTGACAGAGCAAGGGCCTGTCTCTAAAAACAAAACAAAACAAAGCAAAACAAACATGAGAAGTGCTGATTCATACCTTGCAAAGAGGTTTCATTCGGCAGCAAGTTGAAATTATCTACTGGTTTGTACATGAGCTAGCACTTCCTCTTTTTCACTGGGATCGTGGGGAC	0.418 ratio
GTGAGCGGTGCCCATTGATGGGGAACAAACAAGTTTTAAAATTACAAATGAATGCTCAAGAGGAGAACAAAGTTCTAGAGCCAGTTTTAAGGGTCAAATGGTAAACAAAAGGTCAAAAGGTAAACAAGCCCATATCTATGGTTTCAGCTAAGAGCTCAGAGGGGAGCTAGCTAGTTACTCATTATCGCAATGAATTAGCATAACACTAAGGAGAATTACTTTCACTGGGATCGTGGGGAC	0.469 ratio

Study 3
Target: RNA binding protein fox-1 homolog 2, RRM domain, GST-SBP tag (RBFOX2, Homo sapiens, UniProt O43251-10, residues 100-194)
Method: RNA Bind-n-Seq
Form: RNA
Medium: in vitro
Concentration: 365 nM
Setting: natural RNA segment, single round, ends assumed
Relative to: no-protein control
Reading: higher = stronger binding
Construct (chain): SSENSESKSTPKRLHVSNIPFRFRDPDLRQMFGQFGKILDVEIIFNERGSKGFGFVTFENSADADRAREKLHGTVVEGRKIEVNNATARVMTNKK
Sequence	RBNS enrichment (R)
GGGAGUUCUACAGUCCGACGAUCCCCUAUCCUAAGACUCGGAAAGGCCCACCCUGAGGUUCUAUUGCCUUCCUGGUGGUAUCAGCUUCCAGCUGUUUCAACCCUUCCCAGCCCGUUGCUGGCGAUGGGCCCAUUGGAAUUCUCGGGUGCCAA	0.169
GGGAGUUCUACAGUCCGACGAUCGGGCUCCAAGCACAAACUGCCAUUGGCUAUAGAUGGGACUGUGUCCCCCCAAAAUUCAUGUGUUGGAGCCUUAACCCUCAAUGUGAUGGUAUUUGAGAUGGGGCCUUUGGUGGAAUUCUCGGGUGCCAA	0.341
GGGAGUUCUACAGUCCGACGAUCAGACACAGUGGAAGGGGGAAAAAAAGCUACGAGAUUGUUUUUACACUUUUAGCAAAGUUUCUGUGGAUGCUAGUAAUUUAUACUUGAUCAGUUGUAUUCUAGUAAAGAACUGGAAUUCUCGGGUGCCAA	0.569
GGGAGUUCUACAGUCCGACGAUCAGCCACCACUGUGCUCGCUCCAACUGCGGGUAGCACAGGAGAGGAGGGACGGAUAAGGGCAGAUGUCAGCAAUACUAAGGGCUUCCUCCUGGGAGGGAAUGAGGUUCCACUGGAAUUCUCGGGUGCCAA	0.431
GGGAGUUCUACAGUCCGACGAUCCUUUAAAUGUCCGGGAAAACUAAUUUCAGUAGCGUAGUUUGAUAGGUUAAAUGAGAUAGCAUUUUUAUAUCAGAGACACCAGAAUGUUGGUGGUCAACUACCUGUGCAAUUGGAAUUCUCGGGUGCCAA	0.695
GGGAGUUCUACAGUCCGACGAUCCACAGCCAUUCCCUCAUGAGAGGUGGCUCUCAUGGCAUCUUGCAAUGUUUGUCUUGUUUUGUUCAUUUGGCCAGUAAGGAAUGUCCCUGGGCUUUGAGUUUCCAGAAAGAUGGAAUUCUCGGGUGCCAA	1.24
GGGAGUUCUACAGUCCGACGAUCGUGUCAACAGAUGCAUUCAUUUCUCUUGGAAUGUGUAUUGUUUUUAUUUUGCGAAACAAAACAAAACAAAAAAAAAAGCUUGGAACUCCAUCACGUGGAAAAACUAGAUCUGGAAUUCUCGGGUGCCAA	0.801
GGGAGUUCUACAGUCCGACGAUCUGCACCGGUGAAACUCAGGCCACACUCAAGGGCUGACUGUCCAGGCGCUCCCUUCAGCCGCCUCGUCGUCAGCGUUCUUAGUCAUGCAUUAUUCGUGUUAGCUGAAAUGCUGGAAUUCUCGGGUGCCAA	0.384

Study 4
Target: Histone acetyltransferase KAT6A, winged helix 1, GST fusion (KAT6A, Homo sapiens, UniProt Q92794, residues 1-85)
Method: protein binding microarray
Form: double-stranded DNA, one strand shown
Medium: in vitro
Concentration: not given
Setting: 8-mer, flanks averaged, mean of 2 arrays, mostly near background
Relative to: not given
Reading: higher = stronger binding
Construct (chain): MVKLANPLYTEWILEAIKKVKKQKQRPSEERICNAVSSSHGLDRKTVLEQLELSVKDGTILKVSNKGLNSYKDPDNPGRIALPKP
Sequence	E-score
AGTTACAT	-0.0973
CAGGAGGG	-0.244
ATAGCGGG	0.283
CGTTCCAG	-0.116
CGGAAATC	0.0449
ACACAAGT	-0.184
GCACCAAA	-0.205
AAGAGTCT	-0.176
GGAAACAA	-0.0485
AAGGAAGA	-0.234
TATAGCCA	-0.0442
CCACTTTA	-0.209
GATACGCA	0.122
ATAGTCTC	0.0147
TTGCACAA	-0.102
ACTGATAT	-0.0846
ACCAGAAG	-0.199
GGTCAGGA	-0.0708
ACGCCCCA	-0.105
CATCGAGA	-0.118
ACTTCCAC	-0.12

Excerpt of the above (study 3):
Sequence	RBNS enrichment (R)
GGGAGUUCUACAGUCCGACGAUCAGCCACCACUGUGCUCGCUCCAACUGCGGGUAGCACAGGAGAGGAGGGACGGAUAAGGGCAGAUGUCAGCAAUACUAAGGGCUUCCUCCUGGGAGGGAAUGAGGUUCCACUGGAAUUCUCGGGUGCCAA	0.431
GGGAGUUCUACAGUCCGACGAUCCUUUAAAUGUCCGGGAAAACUAAUUUCAGUAGCGUAGUUUGAUAGGUUAAAUGAGAUAGCAUUUUUAUAUCAGAGACACCAGAAUGUUGGUGGUCAACUACCUGUGCAAUUGGAAUUCUCGGGUGCCAA	0.695
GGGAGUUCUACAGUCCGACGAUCCACAGCCAUUCCCUCAUGAGAGGUGGCUCUCAUGGCAUCUUGCAAUGUUUGUCUUGUUUUGUUCAUUUGGCCAGUAAGGAAUGUCCCUGGGCUUUGAGUUUCCAGAAAGAUGGAAUUCUCGGGUGCCAA	1.24
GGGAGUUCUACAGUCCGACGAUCGUGUCAACAGAUGCAUUCAUUUCUCUUGGAAUGUGUAUUGUUUUUAUUUUGCGAAACAAAACAAAACAAAAAAAAAAGCUUGGAACUCCAUCACGUGGAAAAACUAGAUCUGGAAUUCUCGGGUGCCAA	0.801
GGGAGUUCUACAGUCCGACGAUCUGCACCGGUGAAACUCAGGCCACACUCAAGGGCUGACUGUCCAGGCGCUCCCUUCAGCCGCCUCGUCGUCAGCGUUCUUAGUCAUGCAUUAUUCGUGUUAGCUGAAAUGCUGGAAUUCUCGGGUGCCAA	0.384
